Measured values from different studies.
Numbered parts are unrelated; each lists some results of a single study.

Block 1 — method: RNA Bind-n-Seq; form: RNA; matrix: in vitro; concentration: not given; reference: input RNA pool; direction: higher = stronger binding
Target: RING finger protein unkempt homolog, zinc fingers 1-6, GST-SBP tag (UNK, Homo sapiens, UniProt Q9C0B0, residues 30-357)
Notes: RNA with constant flanks, human-mouse chimeric sites, ends assumed
Constant ends, left off below: GGGAGUUCUACAGUCCGACGAUC … CAACAGAGGAUUGAGCAUCA
Construct (chain): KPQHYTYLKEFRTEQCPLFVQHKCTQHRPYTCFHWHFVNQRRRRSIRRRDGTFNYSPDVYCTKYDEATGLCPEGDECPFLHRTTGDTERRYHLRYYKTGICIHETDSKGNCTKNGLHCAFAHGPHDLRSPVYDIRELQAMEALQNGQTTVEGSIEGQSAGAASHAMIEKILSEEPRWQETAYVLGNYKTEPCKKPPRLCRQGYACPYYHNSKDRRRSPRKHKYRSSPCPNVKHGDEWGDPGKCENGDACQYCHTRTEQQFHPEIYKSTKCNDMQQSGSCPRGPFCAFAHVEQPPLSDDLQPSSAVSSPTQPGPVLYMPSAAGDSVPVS
| Sequence | bound/input enrichment |
| --- | --- |
| GGAAGCACAUUAAUGGAGAUUGAUGGUGACAAAGGCAAGCAGGGCGGGCCCACCUACUACAUAGACACCAAUGCCCUCCGCGUGCCCAGGGAGAACAUGGAGGCCAUCUCACCACUCAAG | 0.261 ratio |
| UUUCUACUGCAGCAAACGAUGCUAAGAGUGAAGGAUCCUAAGAAGUCCCUGGAUUUUUAUACGAGGGUUCUUGGACUGACGCUAAUCCAGAAGCUUGACUUCCCUGCUAUGAAGUUCUCG | 0.0541 ratio |
| UUUGUAUUCAUGUUAAGCACACGUGCUGGUGGUCUGGGCAUCAAUCUUGCAACUGCUGAUGUAGUCAUUUUAUAUGACUCAGAUUGGAAUCCGCAAGUUGAUCUUCAGGCUAUGGACCGU | 0.142 ratio |
| GGAUCUUUGGGACUGUUUUACUUAAUUGGUCAUUGAUAGCUUAACAAACAUGGAGAUAAGAUUAGAAAUCUUGACAUCAACAGGUAUUAAGCAGAAAAAACCAUGGCCCAGAGUAUCCUG | 0.169 ratio |
| GGUGGGGUGGUCAUUGCCGUUUGAGCUGCUGAUUUUCAUGAGUCGCCUUCAAAACUCUCGUGUAGGGUUGACAAUGUAAGGGGUGGGGGGAUCCAGCUUAUUCUUUUUCCCCAGCCCCCA | 0.766 ratio |
| CUGAAAAACACAGAUAUCAAAGUUGUUGACUUUGGAAGUGCAACGUAUGAUGAUGAACAUCAUAGUACUUUGGUGUCUACCCGGCACUACAGGGCUCCCGAGGUCAUUUUGGCUUUAGGU | 0.262 ratio |
| GAUCCACAGUGGUCUGAGGAGCAACUCAUUGCUGCAAAAUUCUGUUUUGCUGGACUUGUUAUAGGGCAGACUGAAGUGGAUAUCAUGAGUCAUGCCACACAAGCUAUUUUUGAAAUUCUG | 0.181 ratio |
| CAGGGCAUCAUCUCUCGAGCUGUUAAACACCUGUUCAAGAGUAUUGAUGAGAAAAAGACCUCAGCGAUUAAAAAUGGGCUGCCCCCUCCUGAAUUCAAAGUGAAUGCCCAGUUCCUAGAG | 0.402 ratio |

Block 2 — method: RNA Bind-n-Seq; form: RNA; matrix: in vitro; concentration: 1 µM; notes: whole 134-nt RNA, ends assumed; with: 150 mM KCl; reference: input library; direction: higher = stronger binding
Target: Ras GTPase-activating protein-binding protein 1, C-terminal RGG region (G3BP1, Homo sapiens, UniProt Q13283)
UniProt Q13283, sequence (whole entry, looked up): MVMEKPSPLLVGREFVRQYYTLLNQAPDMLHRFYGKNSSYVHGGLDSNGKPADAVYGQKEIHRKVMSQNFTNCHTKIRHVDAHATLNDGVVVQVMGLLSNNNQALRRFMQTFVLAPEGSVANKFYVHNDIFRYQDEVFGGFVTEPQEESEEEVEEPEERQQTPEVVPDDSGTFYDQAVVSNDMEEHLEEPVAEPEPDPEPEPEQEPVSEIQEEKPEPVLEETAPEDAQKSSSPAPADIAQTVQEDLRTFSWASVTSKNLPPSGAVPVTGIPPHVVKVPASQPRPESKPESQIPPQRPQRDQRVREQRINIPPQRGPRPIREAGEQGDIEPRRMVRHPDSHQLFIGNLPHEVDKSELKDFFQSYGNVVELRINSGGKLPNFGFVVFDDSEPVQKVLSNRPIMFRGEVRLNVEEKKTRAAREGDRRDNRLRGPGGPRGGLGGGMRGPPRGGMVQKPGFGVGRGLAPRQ
Constant ends, left off below: GGGAGUUCUACAGUCCGACGAUC … UGGAAUUCUCGGGUGUCAAGG
| Sequence | log2 enrichment |
| --- | --- |
| GUAAGUGUGGCAAUGUGAACUGAAGCUGAUGGGCUGAGAACAUGGACUGAGCUUGUGGUGUGCUUUGCAGGAGGACUUGAAGCAGAGUUC | 1.44 |
| CCUCAAGUCCUGUGCUACACAUCGUAUGUACCGAAUCGGGGAGGGAGGGAGGAAAGUAUUAUGUUACGCCGUUCGGAUCUGCACUUCCAG | 1.83 |
| GUCCUGUGCUACACAUCGUAUGUACCGAAUCGGGGCCCCCGGCCCCCGGGGCCCCCGGAAAGUAUUAUGUUACGCCGUUCGGAUCUGCAC | -2.08 |
| UGGCCCUGGUGGCAUGCGGGAAGGAAGAGGUGGCCUCAUGGAUCGUGGUGGUCCCGGUGGAAUGUUCAGAGGUGGCCGUGGUGGAGACAG | 2.12 |
| UCCUGUGCUACACAUCGUAUGUACCGAAUCGGGAAAAAAAGGGAAAGGGAAAAAAAGGGAAAGUAUUAUGUUACGCCGUUCGGAUCUGCA | -0.829 |
| AGUCCUGUGCUACACAUCGUAUGUACCGAAUCGGGUUUGGGAAAGGGAAAAAAAGGGAAAGUAUUAUGUUACGCCGUUCGGAUCUGCACU | 0.42 |
| AGUCCUGUGCUACACAUCGUAUGUACCGAAUCGGCCCCCGGGGCCCCCGGGCCCCCGGAAAGUAUUAUGUUACGCCGUUCGGAUCUGCAC | -2.06 |
| AAGUCCUGUGCUACACAUCGUAUGUACCGAAUCGGGGUUUUGGGUUUUGGGUUUUGGAAAGUAUUAUGUUACGCCGUUCGGAUCUGCACU | -1.06 |
| AGUCCUGUGCUACACAUCGUAUGUACCGAAUCGGGGUUUGGGGAAAAAGGGGUGGGGAAAGUAUUAUGUUACGCCGUUCGGAUCUGCACU | 2.65 |

Block 3 — method: RNA Bind-n-Seq; form: RNA; matrix: in vitro; concentration: 365 nM; reference: no-protein control; direction: higher = stronger binding
Target: RNA binding protein fox-1 homolog 2, RRM domain, GST-SBP tag (RBFOX2, Homo sapiens, UniProt O43251-10, residues 100-194)
Notes: natural RNA segment, single round, ends assumed
Constant ends, left off below: GGGAGUUCUACAGUCCGACGAUC … UGGAAUUCUCGGGUGCCAA
Construct (chain): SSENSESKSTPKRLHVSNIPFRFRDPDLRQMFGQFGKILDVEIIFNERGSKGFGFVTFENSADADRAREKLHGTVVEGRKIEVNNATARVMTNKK
| Sequence | RBNS enrichment (R) |
| --- | --- |
| CACCUUAGUUACUUCAUUUGGCUCCGUUGGCUUGUGUUUCUAGGUGAGGAGUUUCCUACCAGUUCACUCCAGUGCCAUUGUCUUUAUAUGAACGUAGUGUAGAGAAGCUG | 0.404 |
| CUUUCCUAUUUAAAACAGGUUAGAUUUUAAAAUAGAGCUUUGUAUUGUGUAAUGGUUUUAUAUAUUAGCUUUGUAUAAGCUUUCAUGUAAGAGUCAUAUUUUUUGGCUUU | 0.753 |
| UCUCUGACUCUUGCCUUUCCACCUGCUUUCUCCUGGGCCCGCUUUGCCUGCUUGAAGGAACAGUGCUGUUCUGGAGCUGCUGUUCCAACAGACAGGGCCUAGCUUUCAUU | 0.717 |
| GGCAAGUCCCCAAACCUCCUUGUGCCUCAGUUUCCCCAUCUGGAAAAAAUGGGGCCACCUCUUGCCAGCAGUAGCAGGGCUGCCCAUGCCCCUUCCUCCCCAUGCCCCAU | 0.779 |
| UUGGGAAAUCGGAAUCAAAGUAUUGGUGCCAGCUCACUGAAGAUCUGAUUGGGUCAACAGUUGAUUAGUGGAAGACGGAGAGCAGAAGAAUUUUGUCAUAUCUAUUAGGC | 0.485 |
| UGUGAAGAGCAGGUCUGCUUUACCUUUCUUGCCAGGUUCAAACUGUGUUUUUAAAUGGAAGGGAUUUGUGGCAUCCACUUGCUGAGCGGUGAACAGAGCGAGACGCAGUU | 0.395 |
| UCUGGUCUAUUGUGUAAAUAUUUAUUUAGACUAUUUUAAUAAUACAUAUUAUUUACCCCACUGUAACAUCAUGUAAACUAAGUAUGUUUUUAAACAAUUUUUAAGACUUG | 0.564 |
| AUGGCUAAAUGCUGAAGGUGGAGGUUCAGCAUGUCUGACAACCCGGAUGUACACCGUAGAAGUGCCAUUCAGUUGUACACACAUCUUUCCUCCUCCACAUCAUCCCCACG | 0.313 |

Block 4 — method: protein-binding microarray; form: double-stranded DNA, one strand shown; matrix: in vitro; concentration: not given; direction: higher = stronger binding
Target: Transcriptional repressor CTCF (CTCF, Homo sapiens, UniProt P49711, residues 1-727, full length assumed)
UniProt P49711, sequence (whole entry, looked up): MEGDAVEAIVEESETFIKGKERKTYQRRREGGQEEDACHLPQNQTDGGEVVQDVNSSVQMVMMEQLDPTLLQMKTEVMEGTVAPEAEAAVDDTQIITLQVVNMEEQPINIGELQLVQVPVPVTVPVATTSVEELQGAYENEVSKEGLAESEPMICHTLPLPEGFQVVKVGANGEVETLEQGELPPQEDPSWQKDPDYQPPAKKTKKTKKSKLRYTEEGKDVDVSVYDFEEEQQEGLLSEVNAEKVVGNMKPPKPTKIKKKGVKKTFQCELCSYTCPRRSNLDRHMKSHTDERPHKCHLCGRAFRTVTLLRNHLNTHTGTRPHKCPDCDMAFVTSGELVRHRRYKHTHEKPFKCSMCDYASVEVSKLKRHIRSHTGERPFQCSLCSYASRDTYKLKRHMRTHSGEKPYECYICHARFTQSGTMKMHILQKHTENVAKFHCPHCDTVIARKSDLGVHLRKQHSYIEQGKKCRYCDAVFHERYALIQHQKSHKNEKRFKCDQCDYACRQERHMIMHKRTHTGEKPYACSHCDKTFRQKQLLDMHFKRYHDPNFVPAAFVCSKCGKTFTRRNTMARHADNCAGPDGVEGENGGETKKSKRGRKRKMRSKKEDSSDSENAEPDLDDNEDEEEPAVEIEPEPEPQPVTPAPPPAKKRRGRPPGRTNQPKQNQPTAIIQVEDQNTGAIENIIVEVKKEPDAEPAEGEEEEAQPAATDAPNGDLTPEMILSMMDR
Notes: k-mer, scored over probes, only values ≥0.25
| Sequence | E-score |
| --- | --- |
| ACTATAAT | 0.299 |
| AATATATC | 0.303 |
| ATACAAAC | 0.307 |
| AATAAAAA | 0.326 |
| TGCAATAA | 0.288 |
| ATTGTAGA | 0.251 |
| GTGCAATA | 0.264 |
| ATTCATAC | 0.266 |
| GTATGTAA | 0.304 |
| TAGGCGCA | 0.266 |
| GCGCGCGC | 0.421 |
| GCGCTGCA | 0.277 |
| ATCATACA | 0.308 |
| CAAGCGCA | 0.287 |
| ACGCGCGC | 0.379 |
| AATAAATT | 0.308 |

Block 5 — method: protein binding microarray; form: double-stranded DNA, one strand shown; matrix: in vitro; concentration: not given; reference: not given; direction: higher = stronger binding
Target: Histone acetyltransferase KAT6A, winged helix 2, GST fusion (KAT6A, Homo sapiens, UniProt Q92794, residues 85-181)
Notes: 8-mer, flanks averaged, mean of 2 arrays, mostly near background
Target sequence (chain): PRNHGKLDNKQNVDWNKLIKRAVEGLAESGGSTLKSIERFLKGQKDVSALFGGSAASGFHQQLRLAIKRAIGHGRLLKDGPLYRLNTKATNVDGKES
| Sequence | E-score |
| --- | --- |
| GCTTCCCC | -0.0994 |
| CTCGACGC | 0.168 |
| GAGTCAGC | -0.0133 |
| GTGGGCGA | 0.145 |
| ACCGGTTC | -0.148 |
| ACAGCAGG | 0.0797 |
| CTAGAAGA | -0.0344 |
| GACGACCC | 0.0401 |
| ACAACGAG | -0.0966 |
| AACGCTAA | -0.00515 |
| CGTACTAG | 0.04 |
| GGTAAAAC | -0.00378 |
| AGTTTTCC | 0.0567 |
| GGTGAGAC | -0.124 |
| AAACAAAG | -0.0625 |
| ACAGGAAG | -0.0622 |

Repeated from above (block 2):
| Sequence | log2 enrichment |
| --- | --- |
| AGUCCUGUGCUACACAUCGUAUGUACCGAAUCGGCCCCCGGGGCCCCCGGGCCCCCGGAAAGUAUUAUGUUACGCCGUUCGGAUCUGCAC | -2.06 |
| AGUCCUGUGCUACACAUCGUAUGUACCGAAUCGGGUUUGGGAAAGGGAAAAAAAGGGAAAGUAUUAUGUUACGCCGUUCGGAUCUGCACU | 0.42 |
| AAGUCCUGUGCUACACAUCGUAUGUACCGAAUCGGGGUUUUGGGUUUUGGGUUUUGGAAAGUAUUAUGUUACGCCGUUCGGAUCUGCACU | -1.06 |
| AGUCCUGUGCUACACAUCGUAUGUACCGAAUCGGGGUUUGGGGAAAAAGGGGUGGGGAAAGUAUUAUGUUACGCCGUUCGGAUCUGCACU | 2.65 |
